# Measured values gathered from unrelated publications.
# “And” joins repeats or separate records; there may be more than shown. ± marks the error that the study gave.
# Melanocortin receptor 4: Melanocortin receptor 4 (Mus musculus, UniProt P56450)
# GLP1R: Glucagon-like peptide 1 receptor (GLP1R, Homo sapiens, UniProt P43220)
# NR1H3 ligand-binding domain: Oxysterols receptor LXR-alpha, ligand-binding domain (NR1H3, Homo sapiens, UniProt Q13133)
# CNR1: Cannabinoid receptor 1 (CNR1, Homo sapiens, UniProt P21554)
SMILES,target,test,system,setting,EC50
CC[C@H](C)[C@H](NC(=O)[C@H](C)NC(=O)[C@@H](N)CO)C(=O)N[C@@H](CCCNC(=N)N)C(=O)NCC(=O)N[C@@H](C)C(=O)O,"AimR transcriptional regulator (aimR, Bacillus phage phi3T, UniProt P0DOE3)","binding, microscale thermophoresis",,"pH 8.0, 23 °C, together with: AimR 200 nM",118 to 162 nM
C[C@@H]1NC(=O)[C@H](CC(N)=O)NC(=O)[C@H](Cc2c[nH]c3ccccc23)NC(=O)[C@H](CCCNC(=N)N)NC(=O)[C@@H](Cc2ccccc2)NC(=O)[C@H](Cc2c[nH]cn2)NC(=O)[C@@H](NC(=O)[C@@H](N)Cc2ccc(O)cc2)Cn2cc(nn2)C[C@@H](C(=O)N[C@@H](Cc2ccc(O)cc2)C(N)=O)NC(=O)[C@H](Cc2ccccc2)NC1=O,Melanocortin receptor 4,agonist,,,6 ± 1 nM
CC[C@H](C)[C@H](NC(=O)[C@@H]1CCCN1C(=O)CNC(=O)[C@H](Cc1ccccc1)NC(=O)[C@H](CC(N)=O)NC(=O)[C@H](CC(N)=O)NC(=O)[C@H](CO)NC(=O)[C@H](CO)NC(=O)[C@H](Cc1c[nH]cn1)NC(=O)[C@@H](NC(=O)[C@H](CC(C)C)NC(=O)[C@H](Cc1ccccc1)NC(=O)[C@H](CC(N)=O)NC(=O)[C@H](C)NC(=O)[C@H](CC(C)C)NC(=O)[C@H](CCCNC(=N)N)NC(=O)[C@H](CCC(N)=O)NC(=O)[C@@H](NC(=O)[C@H](C)NC(=O)[C@@H]1CSSC[C@H](NC(=O)[C@@H](N)CCCCN)C(=O)N[C@@H](CC(N)=O)C(=O)N[C@@H]([C@@H](C)O)C(=O)N[C@@H](C)C(=O)N[C@@H]([C@@H](C)O)C(=O)N1)[C@@H](C)O)C(C)C)C(=O)N[C@@H](CC(C)C)C(=O)N1CCC[C@H]1C(=O)N1CCC[C@H]1C(=O)N[C@H](C(=O)N[C@@H](CC(N)=O)C(=O)N[C@H](C(=O)NCC(=O)N[C@@H](CO)C(=O)N[C@@H](CC(N)=O)C(=O)N[C@H](C(=O)N[C@@H](Cc1ccc(O)cc1)C(N)=O)[C@@H](C)O)C(C)C)[C@@H](C)O,"Calcr/Ramp3 (Mus musculus, UniProt Q60755+Q9WUP1)","cAMP production, agonist","COS-7, transfected","15 min, 37 °C, together with: IBMX 1 mM",1.23 nM
COc1ccccc1-c1cc(C(F)(F)F)nc(S(=O)(=O)CCCC(=O)Nc2ccc(F)cc2F)n1,GLP1R,"cAMP, agonist",,,7300 nM
COc1cccc(S(=O)(=O)N(C)c2ccc(C(O)(C(F)(F)F)C(F)(F)F)cc2)c1,NR1H3 ligand-binding domain,agonist,,concentration not given,210 ± 20 nM
Cc1cc(C)c2sc(NC(=O)C3CCN(S(=O)(=O)c4ccc(F)cc4)CC3)nc2c1,"Napepld (Mus musculus, UniProt Q8BH82)",flame-NAPE competition,,"LEI-401 series, together with: vehicle pretreatment",540 nM
COc1ccc(-c2cc(C(F)(F)F)nc(SCC(=O)N(C)c3ccccc3)n2)cc1OC,GLP1R,"cAMP accumulation, positive allosteric modulator",HEK-293T overexpressing GLP1R,together with: EC20 GLP-1,3900 ± 1000 nM
Fc1ccc(CN2CCC[C@@H](c3nc(-c4ccc(F)c5cn[nH]c45)no3)C2)cn1,CNR1,agonist,CHO expressing CNR1,,110 ± 7.6 nM
CCc1oc2c([C@H](CO)N(CC)CC)cccc2c1C,"LPAR1 (Homo sapiens, UniProt Q92633)","Gi activation, agonist, NanoBiT G-protein dissociation",HEK293T,,1 nM
O=C(O)c1ccc(-c2nc(-c3cccc(C(F)(F)F)c3)cs2)cc1,"PPARD (Homo sapiens, UniProt Q03181)","binding, TR-FRET",,,no binding
O=C(O)/C=C/c1cccc(NC(=O)c2cc(-c3ccc(F)cc3)ccc2F)c1,"PTGER4 (Homo sapiens, UniProt P35408)","calcium signal, agonist, fluorescence",,,> 10000 nM
COc1ccc(-c2cc(C(F)(F)F)nc(NCc3ccccc3)n2)cc1OC,GLP1R,"cAMP accumulation, positive allosteric modulator",HEK-293T overexpressing GLP1R,together with: EC20 GLP-1,20000 ± 21000 nM
CN(C(=O)c1cccc(C(F)(F)F)c1)c1ccc(C(O)(C(F)(F)F)C(F)(F)F)cc1,NR1H3 ligand-binding domain,agonist,,concentration not given,1190 ± 10 nM
COc1ccccc1-c1cc(C(F)(F)F)nc(S(=O)(=O)CCCC(=O)Nc2ccn(Cc3ccc(C)cc3)n2)n1,GLP1R,"cAMP accumulation, positive allosteric modulator",HEK-293T overexpressing GLP1R,together with: EC20 GLP-1,18000 ± 22000 nM
Cc1cc(N/C=C(\C(=O)NC2CCC2)C(=O)c2ccc(Cl)cc2Cl)no1,"GABA A receptor alpha-1/beta-1/gamma-2 (Homo sapiens, UniProt P14867+P18505+P18507)","GABA current potentiation, positive modulator, two-electrode voltage clamp",Xenopus laevis oocytes,"30 s preincubation, together with: GABA EC10",1700 ± 200 nM
Cc1cc(Br)cnc1OCCCNc1n[s+]([O-])nc1NCc1ccc[n+]([O-])c1 (stereo not shown),"GPR132 (Homo sapiens, UniProt Q9UNW8)","β-arrestin recruitment, agonist",,,1580 nM
COc1ccc(F)cc1CC1(NC(=O)c2cc(N3C[C@@H](C)O[C@H](C)C3)ccn2)CC1,"SLC6A8 (Homo sapiens, UniProt P48029, P544L)",creatine transport rescue,U-2 OS overexpressing SLC6A8,24 h,400 nM
COc1ccc(-c2cc(C(F)(F)F)nc(NCc3cccnc3)n2)cc1OC,GLP1R,"cAMP accumulation, positive allosteric modulator",HEK-293T overexpressing GLP1R,together with: EC20 GLP-1,22000 ± 20000 nM
CN(C(=O)c1ccccc1Cl)c1ccc(C(O)(C(F)(F)F)C(F)(F)F)cc1,NR1H3 ligand-binding domain,agonist,,concentration not given,300 ± 10 nM
CCC(=O)N(C)c1ccc(Cl)c(Cl)c1,"AHR (Homo sapiens, UniProt P35869)","reporter gene, agonist, luciferase",,,38000 nM and 38100 nM
CCSC[C@H](NC(=O)[C@H](Cc1ccc(O)cc1)NC(=O)[C@@H](NC(=O)[C@H](CCCNC(=N)N)NC(=O)CNC)C(C)C)C(=O)N[C@@H](Cc1c[nH]cn1)C(=O)N1CCC[C@H]1C(=O)N[C@@H](CC(C)C)C(=O)O,"AGTR1 (Homo sapiens, UniProt P30556)","β-arrestin recruitment, agonist",,,0.5 nM
CCn1c(=O)[nH]c2cc(Cl)c(Cl)cc21,"Calm1/Kcnn2, SK2-a isoform (Rattus norvegicus, UniProt P0DP29+P70604)",,rat,,21500 ± 2700 nM
CC(=O)N[C@@H](Cc1cnc[nH]1)C(=O)N[C@H](Cc1ccccc1)C(=O)N[C@@H](CCCNC(=N)N)C(=O)N[C@@H](Cc1c[nH]c2ccccc12)C(=O)NCCCOCCOCCOCCCNC(=O)COCC(=O)N[C@@H](Cc1cnc[nH]1)C(=O)N[C@H](Cc1ccccc1)C(=O)N[C@@H](CCCNC(=N)N)C(=O)N[C@@H](Cc1c[nH]c2ccccc12)C(N)=O,Melanocortin receptor 4,"cAMP, agonist, AlphaScreen",,,1.2 nM
COc1ccc(-c2cc(C(F)(F)F)nc(NCc3ccc(F)cc3)n2)cc1OC,GLP1R,"cAMP accumulation, positive allosteric modulator",HEK-293T overexpressing GLP1R,together with: EC20 GLP-1,2600 ± 200 nM
CCOC(=O)[C@](CC)(CCCSCCOCCOCCNC(=O)c1ccc(C(=O)[O-])c(C2=C3C=CC(=[N+](C)C)C=C3[Si](C)(C)c3cc(N(C)C)ccc32)c1)NC(=O)c1ccc(C2CC2)c(Cc2ccc(F)cc2)n1,CNR1,"cAMP, agonist",,,> 10000 nM

# Repeated from above:
SMILES,target,test,system,setting,EC50
COc1ccccc1-c1cc(C(F)(F)F)nc(S(=O)(=O)CCCC(=O)Nc2ccn(Cc3ccc(C)cc3)n2)n1,GLP1R,"cAMP accumulation, positive allosteric modulator",HEK-293T overexpressing GLP1R,together with: EC20 GLP-1,18000 ± 22000 nM
O=C(O)/C=C/c1cccc(NC(=O)c2cc(-c3ccc(F)cc3)ccc2F)c1,"PTGER4 (Homo sapiens, UniProt P35408)","calcium signal, agonist, fluorescence",,,> 10000 nM
